Measurements from different studies.
A part holds a random share of what one study measured.

Series 1 — method: protein binding microarray; molecule type: double-stranded DNA, one strand shown; medium: in vitro; concentration: not given; reference: not given; reading: higher = stronger binding
Target: Histone acetyltransferase KAT6A, both winged helices, GST fusion (KAT6A, Homo sapiens, UniProt Q92794, residues 1-181)
Setting: 8-mer, flanks averaged, mean of 2 arrays, mostly near background
Construct (chain): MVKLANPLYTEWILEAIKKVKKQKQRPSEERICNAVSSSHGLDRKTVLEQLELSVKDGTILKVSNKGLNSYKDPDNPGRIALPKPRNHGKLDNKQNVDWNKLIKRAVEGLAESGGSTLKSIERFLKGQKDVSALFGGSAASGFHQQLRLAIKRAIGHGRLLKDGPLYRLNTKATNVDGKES
Oligonucleotide	E-score
CGCGCTAG	0.349
ATGGATGC	-0.107
GCGCCCTA	0.219
ATAACGTA	-0.0741
ACCAGCGT	-0.0205
GAAACGGA	0.167
AGCATCGC	0.135
ACCTCGAT	-0.0997
AAATGCGT	0.133
CTTTGTTC	0.0254
GACCTCCC	-0.0581
ATTACATC	0.0359
ATTTGGTC	-0.08
CTTTCCAA	-0.0879
GAATAGCA	-0.232
ACAACCAC	-0.0425
ATGGCCCA	-0.196
CACTTACA	-0.0104
GCTTGTGA	-0.0653
GAGAGCTA	-0.0831
CAGTACAC	-0.118
CAAGTACA	-0.101

Series 2 — method: RNA Bind-n-Seq; molecule type: RNA; medium: in vitro; concentration: not given; reference: input RNA pool; reading: higher = stronger binding
Target: RING finger protein unkempt homolog, zinc fingers 1-6, GST-SBP tag (UNK, Homo sapiens, UniProt Q9C0B0, residues 30-357)
UniProt Q9C0B0, sequence (30-357, looked up): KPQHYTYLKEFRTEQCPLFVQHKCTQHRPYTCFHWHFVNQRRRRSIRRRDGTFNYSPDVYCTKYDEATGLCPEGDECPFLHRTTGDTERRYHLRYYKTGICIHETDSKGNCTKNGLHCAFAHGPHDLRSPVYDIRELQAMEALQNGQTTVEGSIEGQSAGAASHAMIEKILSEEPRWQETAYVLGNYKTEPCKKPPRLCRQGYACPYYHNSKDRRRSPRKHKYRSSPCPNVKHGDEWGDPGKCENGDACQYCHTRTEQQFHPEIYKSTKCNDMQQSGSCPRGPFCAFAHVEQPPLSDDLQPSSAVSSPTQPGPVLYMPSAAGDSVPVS
Setting: RNA with constant flanks, human and mouse sites, ends assumed
All sequences stand within: GGGAGUUCUACAGUCCGACGAUC … CAACAGAGGAUUGAGCAUCA
Oligonucleotide	bound/input enrichment [ratio]
ACGCAGUUUCCCCGAUUUCCUUCUCUCAGCCUGAAGUUCUAGAUCCUUUCGGUUUCCUCCUUAGUCCCUCCAAGGUACUUAACCCCUUUUUGCAGUUUGGACUUUGAGAUUGUGAAUCUC	0.391
AAAGAACUACUUGCAGAGAUAGGUUCAUUAUCUCUUCAUUGUACCAUAGAUGAGAAGCGGUUAGCUGGCUAUUGUCAAGCGUGUGAUGUUCUUGUACCUUCUUCUGAUAAUAACUCUCAA	0.339
UCAAAAUUCUUCUCUGCCUACAAAAGUCAUUUCCGCAAUGUCCAUAGUGAAGACUUUGAAAAUAGGAUUCUCCUUAAUUGCCCCUACUGUACCUUCAAUGCAGACAAAAAGACUUUGGAA	0.161
UUCUUGAUCUGGGACUGCUGUGAUGCAUGGUUAAAAGUAAAACAUCUUGUGAAUUUAAUUGUUAUGGAUCCAUUUGUUGAUCUUGCCAUCACUAUUUGCAUUGUCUUAAAUACCCUCUUU	0.105
ACAGAAAAUAGCAGCGCAGUGUUACUCCAGUGGCACGAAAAGGCCUUAGCAGUAGGAGGACUAGGCUCCAUUAUAAGAGUUCUUACAGCAAGAAAGACUGUUUAAAAAAAAUAAAAAGAC	0.507
ACUGUUGUUUAUGGCCCACCUCCUGCUGGGGCCCCCAUGGUGUAUGGGCCUCCACCCCCCAACUUCUCCAUCCCCUUCAUCCCUAUGGGUGUGCUGCAUUGCAACGUCCCUGAACACCAU	0.317
GGAGGCUAUGGAGGCUAUGAUGAUUAUAAUGGCUAUAAUGAUGGCUAUGGAUUUGGUUCAGAUAGAUUUGGAAGAGACCUCAAUUAUUGUUUUUCAGGAAUGUCUGACCACAGAUAUGGG	0.571
AAGGUUAAGUACCACAUUCUCCUCUAAACCUUGCCUACGACAUGUUUAAUACUUCAUCUACAUAGCAGCCCUUCAGAUAAUCACAACCACUUUGCCCCCAAGUUUUCAGGUUAAGUAGCA	2.63
GUGCCCCGGCACCUCCGCGGGCGGCGCGCGUCGGGAUCGGCCGGAGCGGCGGCGUCUCCUUCGGCUGCGGCUGCGGGCGAGCGCCAGGCGCUGCUGACAGAUCCCUGUAUGUCGCUGAGU	1.32
UAUUACUUCUUUUUUUUUCGAACUACACUUGGGCUCCUUUUUUUGUGCUCGACUUUUCCACCCUUUUUCCCUCCCUCCUGUGCUGCUGCUUUUUGAUCUCUUCGACUAAAAUUUUUUUAU	1.22
AUAACGUGUAAAGCUCACUCUUUCACCCUGGAACAGACAAGAGGUGGGCUUAAUAGAGGCAGAGACUGGGGAUAUACCUUUGUUUCCCUAGCAUUUUUAUUUAUUUAUUUUUAUUUUAUU	353

Series 3 — method: RNA Bind-n-Seq; molecule type: RNA; medium: in vitro; concentration: 200 nM; setting: whole 134-nt RNA, ends assumed; together with: 150 mM LiCl; reference: input library; reading: higher = stronger binding; each molecule: 7-deaza-guanosine replaces G
Target: Ras GTPase-activating protein-binding protein 1, full length (G3BP1, Homo sapiens, UniProt Q13283)
UniProt Q13283, sequence (whole entry, looked up): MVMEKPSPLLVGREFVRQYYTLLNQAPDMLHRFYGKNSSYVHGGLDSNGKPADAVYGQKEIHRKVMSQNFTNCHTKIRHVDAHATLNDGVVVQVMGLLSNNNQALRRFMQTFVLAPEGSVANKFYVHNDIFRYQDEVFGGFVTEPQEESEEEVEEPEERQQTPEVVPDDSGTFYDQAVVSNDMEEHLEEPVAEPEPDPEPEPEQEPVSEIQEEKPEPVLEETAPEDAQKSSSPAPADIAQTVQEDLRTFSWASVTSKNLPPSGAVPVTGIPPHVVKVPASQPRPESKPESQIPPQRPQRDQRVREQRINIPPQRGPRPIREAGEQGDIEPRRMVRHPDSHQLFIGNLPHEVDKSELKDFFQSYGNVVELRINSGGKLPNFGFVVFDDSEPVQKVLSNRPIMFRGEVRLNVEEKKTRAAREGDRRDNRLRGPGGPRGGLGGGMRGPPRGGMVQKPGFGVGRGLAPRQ
All sequences stand within: GGGAGUUCUACAGUCCGACGAUC … UGGAAUUCUCGGGUGUCAAGG
Oligonucleotide	log2 enrichment
CCUCAAGUCCUGUGCUACACAUCGUAUGUACCGAAUCGGGGUGGUGGUGGGGAAAGUAUUAUGUUACGCCGUUCGGAUCUGCACUUCCAG	0.0439
ACCAUGCAGGUGGGCAUCUUUGGGAAGUGGGGCAAGGGGGGGAUAGGGAGGGGGGUAACACUUUGGGAACAGGUGGUCCCAGGUCGUUUG	0.0577
UGGCCCUGGUGGCAUGCGGGGAGGAAGAGGUAGCCUCAUGGAUCGUGGUGGUCCCGGUGGAAUGUUCAGAGGUGGCCGUGGUGGAGACAG	0.0846
CAAGUCCUGUGCUACACAUCGUAUGUACCGAAUCGGUUUGGGGUUUGGGGUUUGGGAAAGUAUUAUGUUACGCCGUUCGGAUCUGCACUU	-1.48
AGUCCUGUGCUACACAUCGUAUGUACCGAAUCGGGGCCCCGGGGCCCCGGCCCCGGGGAAAGUAUUAUGUUACGCCGUUCGGAUCUGCAC	-1.08
UGGGAGGUGGAUUUUGUUUAUUUUGUUAGCUCAUUUCCAGGGGUGGGAAUUUUUUUUUAAUAUGUGUCAUGAAUAAAGUUGUUUUUGAAA	-0.224
ACCAUGCAGGUGGGCAUCUUUGGGAAGUGGGGCAAGGGGGGUAUAGGGAGGGGGGUAACACUUUGGGAACAGGUGGUCCCAGGUCGUUUC	0.11
UCAAGUCCUGUGCUACACAUCGUAUGUACCGAAUCGGUUUUUGGAAAAAGGUGGAAAGUAUUAUGUUACGCCGUUCGGAUCUGCACUUCC	-0.548
CCUCAAGUCCUGUGCUACACAUCGUAUGUACCGAAUCGGGUGGGGUGGGGUGGAAAGUAUUAUGUUACGCCGUUCGGAUCUGCACUUCCA	-0.864
GUCCUGUGCUACACAUCGUAUGUACCGAAUCGGGGAAAAAAAGGGGAGGGGUUUGGGGAAAGUAUUAUGUUACGCCGUUCGGAUCUGCAC	-0.669
CCUGUGCUACACAUCGUAUGUACCGAAUCGGGUUUUUGGGAAAAAAAGGGUUUUUUUGGGAAAGUAUUAUGUUACGCCGUUCGGAUCUGC	-2.23

Series 4 — method: universal PBM; molecule type: double-stranded DNA, one strand shown; medium: in vitro; concentration: 600 nM; reading: higher = stronger binding
Target: Sal-like protein 4, full length isoform A (SALL4, Homo sapiens, UniProt Q9UJQ4, residues 1-1053)
UniProt Q9UJQ4, sequence (whole entry, looked up): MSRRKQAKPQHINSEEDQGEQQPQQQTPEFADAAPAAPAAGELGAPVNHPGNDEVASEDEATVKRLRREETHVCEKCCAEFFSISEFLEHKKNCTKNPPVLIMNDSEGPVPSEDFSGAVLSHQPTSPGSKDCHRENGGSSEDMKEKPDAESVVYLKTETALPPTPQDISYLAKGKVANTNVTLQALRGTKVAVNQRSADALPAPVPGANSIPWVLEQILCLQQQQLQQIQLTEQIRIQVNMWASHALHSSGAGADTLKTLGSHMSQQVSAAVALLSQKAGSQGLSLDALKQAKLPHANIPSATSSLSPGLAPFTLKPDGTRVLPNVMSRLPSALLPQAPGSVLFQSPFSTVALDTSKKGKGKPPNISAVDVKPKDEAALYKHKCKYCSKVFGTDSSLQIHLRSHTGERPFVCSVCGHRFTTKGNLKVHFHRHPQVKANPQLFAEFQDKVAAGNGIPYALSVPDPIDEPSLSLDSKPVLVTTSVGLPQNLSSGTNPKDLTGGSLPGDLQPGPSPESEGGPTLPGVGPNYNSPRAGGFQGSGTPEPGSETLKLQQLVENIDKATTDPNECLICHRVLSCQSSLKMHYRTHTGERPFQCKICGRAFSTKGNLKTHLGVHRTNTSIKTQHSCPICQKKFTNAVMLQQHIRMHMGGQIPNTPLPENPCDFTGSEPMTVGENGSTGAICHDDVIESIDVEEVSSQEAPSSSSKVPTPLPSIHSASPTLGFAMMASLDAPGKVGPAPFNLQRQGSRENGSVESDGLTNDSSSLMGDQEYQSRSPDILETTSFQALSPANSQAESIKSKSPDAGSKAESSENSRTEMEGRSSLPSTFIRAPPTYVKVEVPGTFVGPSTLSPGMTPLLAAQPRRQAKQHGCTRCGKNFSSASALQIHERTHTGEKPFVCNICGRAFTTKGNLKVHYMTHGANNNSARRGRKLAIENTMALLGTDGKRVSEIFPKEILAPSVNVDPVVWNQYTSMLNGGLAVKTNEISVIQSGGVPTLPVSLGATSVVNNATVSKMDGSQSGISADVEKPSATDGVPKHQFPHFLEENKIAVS
Setting: 8-mer, flanks averaged, mean of replicates
Oligonucleotide	E-score
GTCGGCCA	-0.242
AGGTGAAT	0.00568
AAGAAGCA	0.0402
CGCTGTAC	-0.0314
CTATGTAC	0.239
ATACAGGG	0.147
GTGACTGA	-0.0135
ACTAGTCG	-0.193
ATTTGTAC	0.217
CTTATCGC	0.00735
CACATGAA	0.136
CATAGTGC	0.141
AAAAAATT	0.369
GAGAGATC	-0.0713
AGTAAAGA	0.148
GAGTTAAC	0.0253
GTTGAGGA	-0.0743
AACCTAGC	-0.127
ATTCTGCA	0.204
GGAGGCTA	-0.274
GATGGGCC	-0.315
TCGATTCA	0.0428
CGCCGTTC	-0.23
ACGGCGGG	-0.269
CAGAGAAA	0.0343

Series 5 — method: RNA Bind-n-Seq; molecule type: RNA; medium: in vitro; concentration: 365 nM; reference: no-protein control; reading: higher = stronger binding
Target: RNA binding protein fox-1 homolog 2, RRM domain, GST-SBP tag (RBFOX2, Homo sapiens, UniProt O43251-10, residues 100-194)
Setting: natural RNA segment, single round, ends assumed
All sequences stand within: GGGAGUUCUACAGUCCGACGAUC … UGGAAUUCUCGGGUGCCAA
Construct (chain): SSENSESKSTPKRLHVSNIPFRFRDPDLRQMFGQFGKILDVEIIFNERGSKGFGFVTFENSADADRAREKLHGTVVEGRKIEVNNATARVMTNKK
Oligonucleotide	RBNS enrichment (R)
GCCCUACAAAUAACCAGCCAGCUGUCCUGUGUGGGGACAGUGGGAGCCAAGUGGGAGGGGAAUGUGCCUUCCCUUCACAGCAGGAGCCAAAAGGAGGCUCCACGGGCCUC	0.518
ACCUAACCUGCAUCCCAUUUCCAGCCUCUUUUCAAGCUGAGAAAAAAAAAAAAAAACACGUUUGAUACUUUGUACAUCAGAUGCAUCUUAUUUAAAAGGGAUACUUUUGU	0.631
AAAAUAUUUUGGUCUAGCCACUAAACAUAAUGACUGAAAAAAAUUAUUAUUAUAAAUCACCAAUAUAAAUUUAUUGCCUACAAUUGUGGACUUAUCAUAUUUUUAUAUAU	0.783
CUUUGGAAAAGCAUCAAAGUAGAAAAGAAAUACAGUGCAAUUCUAUUAUGAGAAUGUUUUACAUUUAAACUGGUUUAGCACCUUUUAAGUUUAAAGCCCAUAGCUUCUUA	0.571
CCUUCUCUCCUCCCUGCCUAGAUCAGUCCUUCUCCAAAAGGACCUGGGAGCUGGCAGCCUGGGCAGGGGGGCUGAGGCACGUGGUAGCCCUCUUUCUGUGAAUGGGGUGG	0.474
GGACUGAGAGACUCCACGCAGGCGAAUUCCCGUUUGGGGCUUUUUUUUCCUCCCUCUUUUCCCCUUGCCCCCUCUGCAGCCGGAGGAGGAGAUGUUGAGGGGAGGAGGCC	0.253
GUACGGCAAAAGAGUAUUAAUCCACUAUCUCUAGUGCUUGACUUUAAAUCAGUACAGUACCUGUACCUGCACGGUCACCCGCUCCGUGUGUCGCCCUAUAUUGAGGGCUC	0.342
AUCUUGUACAACUGAGAAGAAUCAUACUUUGACCUACCUUGUAGAGAUGUGAGGAUUUAGAUGUUUGCUAACUUCAAAACUGUGCUUGAAUAGACUAAUAAUAUAUGCUC	0.515
CAAGUUCCCAUAAAGCAAACAGGGCUUCUACUUUGUCUGCUCGGUGACAGACAACCAAGUUUUCCUCCCAUUUUAAACAAUUACAGCUAAGCAAAACCAGGUUUAGAGGC	0.293
CUUCCAGGCCUCUUCCCCUUUCCUCCAUCUCUGGCAACAGUUCUUGGGGUUUGGCAAUUGUUUGGAUUUUUUUUCUUUCUGCAGUUGUGUGUAUGUGUGUUUGUGUGAAG	3.05
UUUCAUUCUUUCUAGUGUACUAGAUCCAGAAAUUUAGUGUGAUGCCCUGCUUUCUCUUUUCUUUGACUUAACAUUGGUUUCUGAAAGAAUCUUUGCUACCUAGAACCUGC	0.426
GAUAGUUAAAAAUUACUAAUUGGUUUUAUUUCCCUUCACACUCUGCCUCCCCACUUCUCCCCCCGUUACUGAAAAAUAACCAUUUUAGUGUCAGGCUAGAAAUUGAAUUG	0.436

For quick reference, copied from above (series 4):
Oligonucleotide	E-score
ACTAGTCG	-0.193
ATTTGTAC	0.217
CTTATCGC	0.00735
CACATGAA	0.136
CATAGTGC	0.141
AAAAAATT	0.369
GAGAGATC	-0.0713
